Published values of several laboratories.
Every numbered part comes from another study and shows a few of its results, in no order.
UniProt Q04759, sequence (whole entry, looked up): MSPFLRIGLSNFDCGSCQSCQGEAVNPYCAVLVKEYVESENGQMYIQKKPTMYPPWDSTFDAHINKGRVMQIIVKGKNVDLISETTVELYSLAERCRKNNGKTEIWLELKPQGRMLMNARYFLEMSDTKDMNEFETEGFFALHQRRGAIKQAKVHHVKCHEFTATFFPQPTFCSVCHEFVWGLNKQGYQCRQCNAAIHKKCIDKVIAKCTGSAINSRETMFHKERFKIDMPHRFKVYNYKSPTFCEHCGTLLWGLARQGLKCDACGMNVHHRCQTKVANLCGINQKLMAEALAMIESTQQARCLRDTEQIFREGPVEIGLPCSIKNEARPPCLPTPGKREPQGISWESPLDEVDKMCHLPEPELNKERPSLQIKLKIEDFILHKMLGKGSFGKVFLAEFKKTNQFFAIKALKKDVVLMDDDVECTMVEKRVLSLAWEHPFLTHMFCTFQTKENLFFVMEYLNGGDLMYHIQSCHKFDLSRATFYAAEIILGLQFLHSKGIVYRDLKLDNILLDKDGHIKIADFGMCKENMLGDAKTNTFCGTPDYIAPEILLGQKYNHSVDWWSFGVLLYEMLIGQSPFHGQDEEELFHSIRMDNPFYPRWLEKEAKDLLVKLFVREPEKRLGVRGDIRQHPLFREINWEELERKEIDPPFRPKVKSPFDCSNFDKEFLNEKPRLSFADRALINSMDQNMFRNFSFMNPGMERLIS
UniProt P48147, sequence (whole entry, looked up): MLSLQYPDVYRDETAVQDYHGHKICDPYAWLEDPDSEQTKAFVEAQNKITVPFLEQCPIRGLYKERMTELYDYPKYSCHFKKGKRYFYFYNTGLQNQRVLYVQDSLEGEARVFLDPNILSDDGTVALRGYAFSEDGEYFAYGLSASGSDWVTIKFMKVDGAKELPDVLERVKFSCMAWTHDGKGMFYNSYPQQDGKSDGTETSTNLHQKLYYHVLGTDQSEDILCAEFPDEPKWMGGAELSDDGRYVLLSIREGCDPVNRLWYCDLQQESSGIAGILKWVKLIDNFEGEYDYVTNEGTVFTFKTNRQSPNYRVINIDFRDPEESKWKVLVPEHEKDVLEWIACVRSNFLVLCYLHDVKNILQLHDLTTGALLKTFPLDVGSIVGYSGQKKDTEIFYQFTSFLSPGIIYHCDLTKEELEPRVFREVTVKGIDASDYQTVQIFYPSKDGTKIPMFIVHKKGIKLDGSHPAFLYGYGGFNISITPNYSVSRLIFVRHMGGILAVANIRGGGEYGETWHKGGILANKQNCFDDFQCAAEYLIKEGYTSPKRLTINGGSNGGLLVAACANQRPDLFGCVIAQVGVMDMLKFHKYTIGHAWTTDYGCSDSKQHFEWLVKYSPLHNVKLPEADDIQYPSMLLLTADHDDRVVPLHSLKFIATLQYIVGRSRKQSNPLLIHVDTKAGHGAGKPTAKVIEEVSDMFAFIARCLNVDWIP
UniProt O60674, sequence (whole entry, looked up): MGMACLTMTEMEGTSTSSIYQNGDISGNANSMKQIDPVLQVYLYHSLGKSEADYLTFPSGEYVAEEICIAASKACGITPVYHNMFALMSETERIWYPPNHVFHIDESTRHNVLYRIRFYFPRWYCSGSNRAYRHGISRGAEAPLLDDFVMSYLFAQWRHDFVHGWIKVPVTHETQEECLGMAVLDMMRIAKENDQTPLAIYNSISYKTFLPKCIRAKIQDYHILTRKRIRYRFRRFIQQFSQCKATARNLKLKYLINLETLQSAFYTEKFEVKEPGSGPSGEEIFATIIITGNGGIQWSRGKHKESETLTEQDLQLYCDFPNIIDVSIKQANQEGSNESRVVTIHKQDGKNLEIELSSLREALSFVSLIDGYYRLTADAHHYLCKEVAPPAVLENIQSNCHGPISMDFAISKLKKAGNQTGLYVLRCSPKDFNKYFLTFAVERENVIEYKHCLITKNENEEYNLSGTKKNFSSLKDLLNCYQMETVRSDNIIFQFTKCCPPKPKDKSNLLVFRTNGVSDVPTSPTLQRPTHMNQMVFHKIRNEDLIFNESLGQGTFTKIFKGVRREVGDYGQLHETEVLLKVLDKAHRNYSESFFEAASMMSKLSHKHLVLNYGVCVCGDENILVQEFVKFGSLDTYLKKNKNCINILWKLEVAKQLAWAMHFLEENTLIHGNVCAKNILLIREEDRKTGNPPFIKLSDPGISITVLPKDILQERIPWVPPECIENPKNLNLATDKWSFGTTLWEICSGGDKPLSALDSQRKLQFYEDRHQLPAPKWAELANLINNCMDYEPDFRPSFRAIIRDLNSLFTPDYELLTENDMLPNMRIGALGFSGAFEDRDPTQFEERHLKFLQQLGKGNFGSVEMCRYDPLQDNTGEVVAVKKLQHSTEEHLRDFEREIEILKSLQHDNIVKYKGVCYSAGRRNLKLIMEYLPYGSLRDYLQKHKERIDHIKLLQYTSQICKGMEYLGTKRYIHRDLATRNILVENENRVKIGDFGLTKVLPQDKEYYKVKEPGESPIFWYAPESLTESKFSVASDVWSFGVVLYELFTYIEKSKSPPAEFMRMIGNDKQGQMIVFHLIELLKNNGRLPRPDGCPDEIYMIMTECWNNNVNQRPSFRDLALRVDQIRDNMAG
UniProt P49759, sequence (whole entry, looked up): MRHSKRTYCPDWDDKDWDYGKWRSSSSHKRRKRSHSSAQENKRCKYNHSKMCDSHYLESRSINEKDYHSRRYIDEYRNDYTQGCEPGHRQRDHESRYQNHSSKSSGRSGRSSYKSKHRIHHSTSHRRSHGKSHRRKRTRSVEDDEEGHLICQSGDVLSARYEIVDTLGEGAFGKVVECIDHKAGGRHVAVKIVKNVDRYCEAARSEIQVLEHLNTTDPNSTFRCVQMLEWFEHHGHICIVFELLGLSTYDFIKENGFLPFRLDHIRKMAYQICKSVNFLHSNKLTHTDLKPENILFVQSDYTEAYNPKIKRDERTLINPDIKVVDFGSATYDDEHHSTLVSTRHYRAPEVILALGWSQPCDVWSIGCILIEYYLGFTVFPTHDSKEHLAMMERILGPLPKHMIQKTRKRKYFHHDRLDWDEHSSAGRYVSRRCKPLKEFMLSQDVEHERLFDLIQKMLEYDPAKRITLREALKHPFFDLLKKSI
UniProt Q14012, sequence (whole entry, looked up): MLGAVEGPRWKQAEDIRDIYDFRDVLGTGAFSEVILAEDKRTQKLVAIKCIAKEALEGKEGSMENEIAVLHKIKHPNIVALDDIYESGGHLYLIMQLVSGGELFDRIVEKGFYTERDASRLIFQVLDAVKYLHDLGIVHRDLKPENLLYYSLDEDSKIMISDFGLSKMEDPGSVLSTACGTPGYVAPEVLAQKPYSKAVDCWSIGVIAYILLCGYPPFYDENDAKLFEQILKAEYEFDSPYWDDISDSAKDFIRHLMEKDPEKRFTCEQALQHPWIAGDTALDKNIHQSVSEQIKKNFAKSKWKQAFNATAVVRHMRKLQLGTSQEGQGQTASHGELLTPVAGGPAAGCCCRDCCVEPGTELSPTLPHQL
UniProt Q14680, sequence (whole entry, looked up): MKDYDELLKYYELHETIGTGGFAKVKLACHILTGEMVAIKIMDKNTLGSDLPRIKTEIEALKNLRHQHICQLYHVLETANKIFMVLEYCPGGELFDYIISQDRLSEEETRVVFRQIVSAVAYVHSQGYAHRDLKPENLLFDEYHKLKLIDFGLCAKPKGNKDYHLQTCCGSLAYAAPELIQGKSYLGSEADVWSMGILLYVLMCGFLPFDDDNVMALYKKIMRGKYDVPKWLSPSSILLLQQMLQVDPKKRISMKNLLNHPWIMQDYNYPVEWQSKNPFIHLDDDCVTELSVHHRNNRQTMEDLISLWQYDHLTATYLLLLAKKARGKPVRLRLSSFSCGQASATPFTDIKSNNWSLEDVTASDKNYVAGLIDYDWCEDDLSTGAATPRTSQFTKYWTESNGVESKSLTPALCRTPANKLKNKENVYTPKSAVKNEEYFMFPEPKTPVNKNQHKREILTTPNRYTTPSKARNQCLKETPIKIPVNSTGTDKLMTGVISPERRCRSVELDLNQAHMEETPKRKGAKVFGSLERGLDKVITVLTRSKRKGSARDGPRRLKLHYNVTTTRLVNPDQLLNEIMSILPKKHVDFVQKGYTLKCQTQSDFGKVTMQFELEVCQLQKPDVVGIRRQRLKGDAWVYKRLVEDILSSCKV
UniProt P11309, sequence (whole entry, looked up): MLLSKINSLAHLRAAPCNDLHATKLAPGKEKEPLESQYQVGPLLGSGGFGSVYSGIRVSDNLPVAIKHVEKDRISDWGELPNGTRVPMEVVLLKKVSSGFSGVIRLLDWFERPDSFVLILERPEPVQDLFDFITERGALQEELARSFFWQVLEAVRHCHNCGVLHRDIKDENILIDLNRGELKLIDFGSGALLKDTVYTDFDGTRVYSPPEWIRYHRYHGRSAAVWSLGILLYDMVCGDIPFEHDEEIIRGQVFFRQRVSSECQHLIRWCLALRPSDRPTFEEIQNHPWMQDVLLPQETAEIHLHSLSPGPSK
UniProt P11229, sequence (whole entry, looked up): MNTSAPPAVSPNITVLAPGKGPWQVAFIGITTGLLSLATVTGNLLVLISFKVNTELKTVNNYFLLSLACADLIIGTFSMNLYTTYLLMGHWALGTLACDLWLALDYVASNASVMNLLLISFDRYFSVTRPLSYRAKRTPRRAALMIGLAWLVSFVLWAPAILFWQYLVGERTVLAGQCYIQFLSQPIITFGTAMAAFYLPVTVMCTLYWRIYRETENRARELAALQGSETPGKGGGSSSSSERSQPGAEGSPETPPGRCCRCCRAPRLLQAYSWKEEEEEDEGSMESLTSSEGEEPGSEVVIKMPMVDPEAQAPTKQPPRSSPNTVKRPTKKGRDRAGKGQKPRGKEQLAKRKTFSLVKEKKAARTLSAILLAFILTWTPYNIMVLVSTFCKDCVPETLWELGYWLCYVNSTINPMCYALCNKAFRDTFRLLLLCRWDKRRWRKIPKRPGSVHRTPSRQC

Study 1 — cell line: HEK-293T/ACE2; tested at: 10 µM; time: 16 h; reference: vehicle
With `OC(c1cc(C(F)(F)F)nc2c(C(F)(F)F)cccc12)C1CCCCN1` (centres unmarked) the viability was 94.2%.
The viability of `Cc1ccnc(NS(=O)(=O)c2ccc(N)cc2)n1` is reported as 100%.
The viability of `CO[C@H]1C[C@@H]2CC[C@@H](C)[C@@](O)(O2)C(=O)C(=O)N2CCCC[C@H]2C(=O)O[C@H]([C@H](C)C[C@@H]2CC[C@@H](O)[C@H](OC)C2)CC(=O)[C@H](C)/C=C(\C)[C@@H](O)[C@@H](OC)C(=O)[C@H](C)C[C@H](C)/C=C/C=C/C=C/1C` is reported as 100%.
`CC(C)(Oc1ccc(C(=O)c2ccc(Cl)cc2)cc1)C(=O)O` has a viability of 96.2%.
The viability of `O=C1O[C@H](CO)[C@@H](O)[C@H](O)[C@H]1O` is reported as 98%.
`O=C(O)c1cc(/N=N/c2ccc(S(=O)(=O)Nc3ccccn3)cc2)ccc1O` gave a viability of 103%.
`CC(C)C(=O)Oc1ccc(CO)cc1[C@H](CCN(C(C)C)C(C)C)c1ccccc1` gave a viability of 99.7%.
`C[C@]12C=CC(=O)C=C1CC[C@H]1[C@@H]3C[C@@H](O)[C@](O)(C(=O)CO)[C@@]3(C)C[C@H](O)[C@@]12F` has a viability of 101%.
The viability of `CCCCC1C(=O)N(c2ccccc2)N(c2ccccc2)C1=O` is reported as 102%.
For `O=C(O)c1cc(-c2ccc(F)cc2F)ccc1O`, the viability was 101%.

Study 2 — tested at: 10 µM
Structure (SMILES): CN(C)C(=O)COC(=O)Cc1ccc(OC(=O)c2ccc(NC(=N)N)cc2)cc1
It gave 4% for inhibition (Beta-secretase 1 (BACE1, Homo sapiens, UniProt P56817)).
The inhibition was 5% (Genome polyprotein, NS3 protease (Hepatitis C virus genotype 1b, UniProt Q9WMX2, R1181Q)).
PREP (Homo sapiens, UniProt P48147) — inhibition: 31%.
For Genome polyprotein (Hepatitis C virus genotype 1b, UniProt Q9WMX2); protease activity, inhibitor: inhibition read 11%.
For Genome polyprotein, NS3 protease (Hepatitis C virus genotype 1b, UniProt Q9WMX2, R1181K): inhibition read 1%.

Study 3 — read-out: enzyme activity; mode: inhibitor; tested at: 0.5 µM; reference: control
Structure (SMILES): N/C(=N\[N+](=O)[O-])N/N=C\c1ccc(-c2cccc([N+](=O)[O-])c2)o1
For PIM1 (Homo sapiens, UniProt P11309): remaining activity read 92.9%.
It gave 91.4% for remaining activity (PAK1 (Homo sapiens, UniProt Q13153)).
PRKCZ (Homo sapiens, UniProt Q05513) — remaining activity: 90.1%.
For RPS6KB2 (Homo sapiens, UniProt Q9UBS0): remaining activity read 102%.
For MELK (Homo sapiens, UniProt Q14680): remaining activity read 102%.
For JAK2 (Homo sapiens, UniProt O60674): remaining activity read 98.8%.
The remaining activity was 91.6% (SIK2 (Homo sapiens, UniProt Q9H0K1)).
The remaining activity was 101% (RPS6KA3 (Homo sapiens, UniProt P51812)).
The remaining activity was 101% (SGK2 (Homo sapiens, UniProt Q9HBY8)).
The remaining activity was 106% (CAMK1 (Homo sapiens, UniProt Q14012)).
For BRSK2 (Homo sapiens, UniProt Q8IWQ3): remaining activity read 106%.
It gave 147% for remaining activity (TEC (Homo sapiens, UniProt P42680)).
It gave 105% for remaining activity (CLK1 (Homo sapiens, UniProt P49759)).
ERBB2 (Homo sapiens, UniProt P04626) — remaining activity: 100%.
The remaining activity was 90.7% (MARK1 (Homo sapiens, UniProt Q9P0L2)).
For IGF1R (Homo sapiens, UniProt P08069): remaining activity read 96.4%.
The remaining activity was 94.6% (PRKCQ (Homo sapiens, UniProt Q04759)).
It gave 91.5% for remaining activity (TYRO3 (Homo sapiens, UniProt Q06418)).

Study 4 — read-out: ligand displacement; technique: radioligand; tested at: 10 µM
SMILES: Cc1cc(NC(=O)c2cccc(S(F)(F)(F)(F)F)c2)cc(-n2ccn3nc(-c4cccnc4)cc23)c1
HTR2A (Homo sapiens, UniProt P28223) — inhibition: -7.89%.
CHRM3 (Homo sapiens, UniProt P20309) — inhibition: -11.6%.
It gave 24.8% for inhibition (OPRM1 (Homo sapiens, UniProt P35372)).
For DRD5 (Homo sapiens, UniProt P21918): inhibition read 34.3%.
SLC6A3 (Homo sapiens, UniProt Q01959) — inhibition: 25.5%.
The inhibition was 13.1% (OPRK1 (Homo sapiens, UniProt P41145)).
The inhibition was 21.7% (CHRM1 (Homo sapiens, UniProt P11229)).
SLC6A4 (Homo sapiens, UniProt P31645) — inhibition: -17.3%.
The inhibition was -4.02% (HTR2C (Homo sapiens, UniProt P28335)).
SLC6A2 (Homo sapiens, UniProt P23975) — inhibition: 40.2%.
It gave -0.04% for inhibition (OPRD1 (Homo sapiens, UniProt P41143)).

A few entries again (study 3):
It gave 91.5% for remaining activity (TYRO3 (Homo sapiens, UniProt Q06418)).
For JAK2 (Homo sapiens, UniProt O60674): remaining activity read 98.8%.
The remaining activity was 90.7% (MARK1 (Homo sapiens, UniProt Q9P0L2)).
